Measured values collected from several papers.
Compare with care: the assays were run in different laboratories. ± gives the spread as reported.

CS(=O)(=O)n1cc2c(n1)CN([C@H]1CO[C@H](c3cc(F)ccc3F)[C@@H](N)C1)C2  renal clearance (male human, urine; oral, 400 mg, single dose, fasted, healthy volunteers): 45 mL/min
O=C1Cc2cc(CCN3CCN(c4nsc5ccccc45)CC3)c(Cl)cc2N1  QTc change (male Hartley guinea pig, anaesthetized; intravenous infusion, 1 mg/kg, 10 min infusion; reference: baseline): 9.1 ± 1%
COc1ccc2nc([S@@+]([O-])Cc3ncc(C)c(OC)c3C)[nH]c2c1  adverse events (human healthy; 40 mg, general disorders): 0%
Nc1ncn([C@H]2C[C@H](O)[C@@H](CO)O2)c(=O)n1  AUC(0-180) (male CD-1 mice, plasma; oral, 167 mg/kg THU + 1.0 mg/kg, day 1): 6.66 µM·h
CC(=O)[C@H]1CC[C@H]2[C@@H]3CCC4=CC(=O)CC[C@]4(C)[C@H]3CC[C@]12C  thermodynamic solubility (shake-flask; polysorbate 80; 37 °C): 28.3 ± 2.19 mg/g
C/C=C/C=C/C=C/CC/C=C/C(=O)NCC(C)(C)O  recovery (rat, small intestine site 4 contents; oral, dose not given, 4 h, β-glucuronidase treated; reference: ingested amount): 0.01%
CC[C@@H]1C(=O)N(C)c2cnc(Nc3ccc(C(=O)N[C@H]4CC[C@H](N5CCN(CC6CC6)CC5)CC4)cc3OC)nc2N1C(C)C  Cmax geometric mean (human, plasma; intravenous infusion, 300 mg over 2 h, first infusion): 489 ng/mL
Cn1cc(-c2ccc(S(=O)(=O)[C@@H]3C[C@@H](C(=O)NC4(C#N)CC4)N(C(=O)C4(C(F)(F)F)CC4)C3)c(C(F)(F)F)c2)cn1  relative bioavailability (human; oral, fed state; reference: 10 mg fasted): 18%
C[C@H]1Oc2cc(cnc2N)-c2c(nn(C)c2C#N)CN(C)C(=O)c2ccc(F)cc21  initial clearance (human (NSCLC and healthy); oral and intravenous, PopPK, 70 kg subject): 151 mL/min
C=CC(N)CCC(=O)O (stereo not drawn)  Tmax (median) (male Sprague-Dawley rat, plasma; oral, 1.0 mg/kg, formulation 2, together with: infant formula 1500 mg/kg): 0.67 h
Cn1c(-c2ccc(C(N)=O)cc2F)nnc1C(C)(C)Oc1c(F)cc(Cl)cc1F  half-life mean (young Japanese adults, plasma; oral, 50 mg single dose, day 1, high-dose multiple-dose study): 11.3 h
CCCCN1C(=O)c2ccccc2NC12C(=O)N(C)c1ccc(Br)cc12 (stereo not drawn)  logD (shake flask; aqueous buffer; pH 7.4): 3.7
COc1cc(-c2oc3cc(O)cc(O)c3c(=O)c2O)ccc1O  Papp A→B (mass spectrometry; Caco-2; 40 µM, 6 h): 9.32 ×10⁻⁶ cm/s
C#C[C@]1(O)CC[C@H]2[C@@H]3CCc4cc(O)ccc4[C@H]3CC[C@@]21C  thermodynamic solubility (shake-flask; PEG400; 37 °C): ≥ 163 mg/g
Cc1nc2cccc(OCC(C)(C)C(=O)NC(C)C)c2c(N)c1C(=O)O  Cmax (Sprague-Dawley rat, male, plasma; oral gavage, 10 mg/kg, day 1): 12.9 ± 3.2 ng/mL
CCOC(=O)C1=C(C)NC(C)=C(C(=O)OC)C1c1cccc(Cl)c1Cl (stereo not drawn)  thermodynamic solubility (shake-flask; polysorbate 80; 37 °C): 45.2 ± 4.36 mg/g
O=C1N=C(N2CCOCC2)CN1c1ccc(Cl)cc1  apparent volume of distribution (Vz/F) (beagle dog, female; oral, 30 mg/kg, tablets, fed): 1.07 L/kg
Cc1cc(Nc2cc3ncccc3c(N[C@@H]3C[C@H]4CC[C@@H](C3)N4CCC#N)n2)n[nH]1  Cmax (pregnant rat, maternal plasma; oral, 30 mg/kg/day, gestation day 17): 2.75 ng/mL

Repeated from above:
CS(=O)(=O)n1cc2c(n1)CN([C@H]1CO[C@H](c3cc(F)ccc3F)[C@@H](N)C1)C2  renal clearance (male human, urine; oral, 400 mg, single dose, fasted, healthy volunteers): 45 mL/min
C/C=C/C=C/C=C/CC/C=C/C(=O)NCC(C)(C)O  recovery (rat, small intestine site 4 contents; oral, dose not given, 4 h, β-glucuronidase treated; reference: ingested amount): 0.01%
CC(=O)[C@H]1CC[C@H]2[C@@H]3CCC4=CC(=O)CC[C@]4(C)[C@H]3CC[C@]12C  thermodynamic solubility (shake-flask; polysorbate 80; 37 °C): 28.3 ± 2.19 mg/g
